Assay results gathered from unrelated publications.
A part holds a random share of what one study measured.

Series 1 — method: protein binding microarray; form: double-stranded DNA, one strand shown; medium: in vitro; concentration: not given; baseline: not given; direction: higher = stronger binding
Target: Histone acetyltransferase KAT6A, winged helix 2, GST fusion (KAT6A, Homo sapiens, UniProt Q92794, residues 85-181)
Notes: 8-mer, flanks averaged, mean of 2 arrays, mostly near background
Target sequence (chain): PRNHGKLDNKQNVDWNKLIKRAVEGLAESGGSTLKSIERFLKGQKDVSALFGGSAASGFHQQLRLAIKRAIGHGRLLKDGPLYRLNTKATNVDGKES
Oligonucleotide	E-score
CCGTTCTA	0.0422
AGCTATGC	0.0735
TCGTACAA	-0.0241
GGGATAAA	0.101

Series 2 — method: RNA Bind-n-Seq; form: RNA; medium: in vitro; concentration: 365 nM; baseline: no-protein control; direction: higher = stronger binding
Target: RNA binding protein fox-1 homolog 2, RRM domain, GST-SBP tag (RBFOX2, Homo sapiens, UniProt O43251-10, residues 100-194)
Notes: natural RNA segment, single round, ends assumed
Residues (chain): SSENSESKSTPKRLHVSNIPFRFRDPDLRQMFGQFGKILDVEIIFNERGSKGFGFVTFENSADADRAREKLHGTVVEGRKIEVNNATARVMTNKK
Oligonucleotide	RBNS enrichment (R)
GGGAGUUCUACAGUCCGACGAUCUUUACUUGGGUACUUAAGAGUUAUUGUAUUAAUAAAAAGUUAUUGACUUGUCCUUUGAGAGCCUUCUUACAGAGAAUUGGUUAAAAAAACCAAACAUUCAAUUUGGAAUAUGGAAUUCUCGGGUGCCAA	0.504
GGGAGUUCUACAGUCCGACGAUCGGCCCAGCUGCUGUUUAUUUAUGCUUUUUGGUCUGUUUGUUUGAUCUUUUGCUUUUUUAAAAUUGUUUUUUGCAGUUAAGAGGCAGCUCAUUUGUCCAAAUUUCUGGGCUUGGAAUUCUCGGGUGCCAA	1.62
GGGAGUUCUACAGUCCGACGAUCACCAAAGCUGAGGUCCCCUUGAUCAUGAACUCCAUAAAAUCCUUUUCUGACCACGCUCAAUGUGGAAGGCUGGAAGUACACCUUGUUGGAGGCUUCAGUGACGACAGGCAUGGAAUUCUCGGGUGCCAA	0.423
GGGAGUUCUACAGUCCGACGAUCCACUGCCUUCAUGCUGCCCCCGCCGGACUGGCAGAGCCAGGGGUCAGCCACCUGCCUUUGAGUCAUCAAGAUGCCUCUGCAGCCACAAUUCUGACCUAAGUGGCAGGGCCUGGAAUUCUCGGGUGCCAA	0.305

Series 3 — method: protein-binding microarray; form: double-stranded DNA, one strand shown; medium: in vitro; concentration: 2540 nM top; notes: 60-bp whole probe; with: salmon DNA 0.4 mg/ml; baseline: random background probes; direction: higher = stronger binding
Target: Interferon regulatory factor 3, full length, phosphomimetic (IRF3, Homo sapiens, UniProt Q14653, residues 1-427, S386D/S396D/S398D/S402D/T404D/S405D)
Residues (chain): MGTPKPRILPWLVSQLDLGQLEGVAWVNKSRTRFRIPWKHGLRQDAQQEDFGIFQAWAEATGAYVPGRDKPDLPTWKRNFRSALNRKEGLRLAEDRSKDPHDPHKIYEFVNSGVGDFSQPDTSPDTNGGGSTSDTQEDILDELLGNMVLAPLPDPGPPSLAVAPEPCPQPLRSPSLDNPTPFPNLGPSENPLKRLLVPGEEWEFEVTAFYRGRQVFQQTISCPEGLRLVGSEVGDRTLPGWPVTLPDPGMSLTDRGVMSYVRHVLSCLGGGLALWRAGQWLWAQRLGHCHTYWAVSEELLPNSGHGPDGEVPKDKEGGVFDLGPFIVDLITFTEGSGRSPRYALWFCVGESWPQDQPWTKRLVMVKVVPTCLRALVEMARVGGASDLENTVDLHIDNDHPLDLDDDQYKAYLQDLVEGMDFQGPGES
Oligonucleotide	fitted relative affinity [z-score]
GCCTAGCACCTGTACTTGAATTCTGCAAAGTGCTAGGTCTTGATTCGCTTGACGCTGCTG	0.164
GCCTAGCACGACGGTTTCGGGATTGGGGACGTGCTAGTCTTGATTCGCTTGACGCTGCTG	4.91
GCCTAGCACTCACTTATCCAATCAGAACTGTGCTAGGTCTTGATTCGCTTGACGCTGCTG	1.65
GCCTAGCACGACGATATCGGGTTTCGTGACGTGCTAGTCTTGATTCGCTTGACGCTGCTG	0.905

Single results of other studies
Molecule	target	test	test system	setting	scale	quantity	value
PhoQ, residues 284 288 289 292 302 303 AGGLSV	PhoP, residues 12 14 15 18 19 AGCRL (Escherichia coli, UniProt P23836)	Sort-seq, item: YFP reporter	E. coli	PhoQ-PhoP variant library, with: 10 µM Mg2+	baseline: high Mg2+ state, higher = stronger signaling	fold induction	4.53

Some of these lines once more (series 1):
Oligonucleotide	E-score
CCGTTCTA	0.0422
